Measured values collected from several papers.
Numbered parts are unrelated; each lists some results of a single study.

Study 1 — technique: RNA Bind-n-Seq; molecule type: RNA; medium: in vitro; concentration: 365 nM; reference: no-protein control; direction: higher = stronger binding; endpoint: RBNS enrichment (R)
Target: RNA binding protein fox-1 homolog 2, RRM domain, GST-SBP tag (RBFOX2, Homo sapiens, UniProt O43251-10, residues 100-194)
Setting: natural RNA segment, single round, ends assumed
Residues (chain): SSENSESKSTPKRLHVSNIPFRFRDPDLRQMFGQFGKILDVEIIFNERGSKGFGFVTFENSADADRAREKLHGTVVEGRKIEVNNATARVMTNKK
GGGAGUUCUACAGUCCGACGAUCAUAGAGAACCCGGGCUUGAGUGAGAAGAGCUUGCACAGCCAGUGAGACACAUUGCCUUCUGCAGCUGGGAGACAGAGGAAGGAUUCCCUUUCUUCACCAAGUGCAAUAGAUGGAAUUCUCGGGUGCCAA: 0.393
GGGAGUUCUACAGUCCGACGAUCGUAGAUUGGGCGUCUGAGACCCAGAACAUCCUAAAUUUGCAAUGGGUAACAGCUGAAACAAACGGAAGUUUUUGUACCAAAGUGGCCGGAGGUGGGGAAGAACUACUUUCUGGAAUUCUCGGGUGCCAA: 0.617
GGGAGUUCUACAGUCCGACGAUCCCUCAUCCCUCUAAGCAGCUGUCUGUGUGGGUCCUGUCAAUCCCCACACAGACGAAGGUAGCCAGUCACAAGGUUCUGUGCCACCCUGGCCCUAGUGCUUCCAUCUGAUGUGGAAUUCUCGGGUGCCAA: 0.379
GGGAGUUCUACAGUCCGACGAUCUGUCUUCCUGGAAACCUAAAGGGAAACAUGAUCUUGUCCUGAAAAUGAUAUUUUAGAGUCUGAGUGACCCCUUUGACUAUCAGUUCUGAAGAGCAAUUCUCACUGGUAACUGGAAUUCUCGGGUGCCAA: 0.229
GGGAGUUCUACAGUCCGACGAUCUUGACCAAGAAGAAAUGGAGUCUGAGCACCUGGUUUCUGUUCUGUCUAUCUCACUUCACUGUGAGGGGAAGACCUUCUCAUGGGAACUCUCCAAAUACCAUUCAAGUGCCUGGAAUUCUCGGGUGCCAA: 0.299
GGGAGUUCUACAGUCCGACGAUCCUGUUCCCCUGCUCUGUUGCCUCUCUAAGGUAACAUUUAUAGAAGAAAUGGAAUGAAUCUCCAAGGCUUUUAGGACUGUCUGAAAAUUUGAGGCUGGGUGAAGUUAAAACUGGAAUUCUCGGGUGCCAA: 0.49
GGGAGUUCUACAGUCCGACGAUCUACUAGUGAAGUAAGAAAUUUUGCUUGUUGUUUUGCAAACCAAAUAGUUUCCUCAAACACAAAUCAGUGUUCCCACGAACAAGUUCCAGUUGAGAAACACUAAGGUUAUGUGGAAUUCUCGGGUGCCAA: 0.301
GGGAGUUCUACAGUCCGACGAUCUAUUUGUAUAUAUUGAGAUAAUUUAUUUAAUAUACUUUAAAUAAAGGUGACUGGGAAUUGUUACUGUUGUACUUAUUCUAUCUUCCAUUUAUUAUUUAUGUACAAUUUGGUGGAAUUCUCGGGUGCCAA: 0.727
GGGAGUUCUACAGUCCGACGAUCCAAUGACAUUGUAUAAAGGGUGGUCUCAUAAGAUUAUACCAUAUUUUUACUGUACCUUUUCUAUGUCUAAAUAUACAAAUGUUUUACCAUUGUGUUACAGUUGCCUACAGUGGAAUUCUCGGGUGCCAA: 0.351
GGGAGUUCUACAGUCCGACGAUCUGGGAGCUGGCUGCCCCACCCACACUCUCCAUCCCAUUCAAGACUGUGCCAUACCAGCUGAUCUGUAGGCCUUUUCUAUGAGUCCUACUCCAUCAGGGUUUCUGCUGUUAUGGAAUUCUCGGGUGCCAA: 0.27
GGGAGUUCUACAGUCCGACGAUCAAGUCAGAAGUUUAAAAUGUGUUAUAGUUUGCUAAAAAAAAAUCAAAUUAACUGCAUAUAAAAUGGUUCACUUUUAUAUAGUCACAUGUAAUGGGCCUGAAAAAGUUUCUUGGAAUUCUCGGGUGCCAA: 0.753
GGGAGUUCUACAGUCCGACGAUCAUGGAUAAAUUUGAGUAUAAAGGUUUUGUUAUAAAACUGUUCUUUAGUGUAAGGCUGCAUUGUGGGUUUGGGGGAAAUGUAAAUAAUUUUCUGUGUAAAACAAAUUCAUAUGGAAUUCUCGGGUGCCAA: 0.573

Study 2 — technique: protein-binding microarray; molecule type: double-stranded DNA, one strand shown; medium: in vitro; concentration: not given; direction: higher = stronger binding; endpoint: E-score
Target: Max dimerization protein 1, bHLH-zipper, MAX partner unstated (MXD1, Homo sapiens, UniProt Q05195, residues 56-136)
Setting: k-mer, scored over probes, only values ≥0.25
Residues (chain): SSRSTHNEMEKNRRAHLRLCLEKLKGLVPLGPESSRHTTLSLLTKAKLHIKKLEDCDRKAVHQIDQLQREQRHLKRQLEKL
CACGTGGA: 0.49
ACACGCGT: 0.446
AAGCGTGG: 0.398
AGCGTGCA: 0.395
ACACGTTG: 0.408
ACGGGGTA: 0.31
CCCACACG: 0.311
CACGTGTA: 0.487
ACCATGAG: 0.365
ACGTGGTC: 0.385
CGTGACGA: 0.273
AACGGGGG: 0.298
CCACGCGC: 0.422
CCCCCATC: 0.291
AGCGTGTA: 0.318
ACATTGTG: 0.285
GCCACGCC: 0.339
ATAACATG: 0.278
CTCAGCAC: 0.262
CCATGCTC: 0.368
CCCCCCTC: 0.325
CATGGTCA: 0.324
CCCCCTTA: 0.275

Study 3 — technique: protein-binding microarray; molecule type: double-stranded DNA, one strand shown; medium: in vitro; concentration: 2200 nM top; setting: 60-bp whole probe; together with: salmon DNA 0.4 mg/ml; reference: random background probes; direction: higher = stronger binding; endpoint: fitted relative affinity; constant ends, left off below: GCCTAGCAC … GTCTTGATTCGCTTGACGCTGCTG
Target: Interferon regulatory factor 7, full length, phosphomimetic (IRF7, Homo sapiens, UniProt Q92985, residues 1-503, S471D/S472D/S475D/S476D/S477D/S483D/S484D/S487D)
Target sequence (chain): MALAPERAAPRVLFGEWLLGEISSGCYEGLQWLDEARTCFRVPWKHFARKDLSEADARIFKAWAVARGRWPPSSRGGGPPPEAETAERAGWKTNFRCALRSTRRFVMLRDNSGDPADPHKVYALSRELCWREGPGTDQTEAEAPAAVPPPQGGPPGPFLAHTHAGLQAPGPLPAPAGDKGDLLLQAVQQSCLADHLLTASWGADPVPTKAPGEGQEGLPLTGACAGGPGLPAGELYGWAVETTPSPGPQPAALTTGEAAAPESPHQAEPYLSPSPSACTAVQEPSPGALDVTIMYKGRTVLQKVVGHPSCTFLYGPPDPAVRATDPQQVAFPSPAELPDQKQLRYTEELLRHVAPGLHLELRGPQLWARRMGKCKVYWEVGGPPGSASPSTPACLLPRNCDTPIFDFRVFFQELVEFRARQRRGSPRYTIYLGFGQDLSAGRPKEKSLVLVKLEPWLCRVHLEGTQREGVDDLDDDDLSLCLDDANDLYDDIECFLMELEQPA
CACGGTCTCCTTCTCCTGACGTGCTAG: 0.906 z-score
GACGGACTGGACACTGGGCACGTGCTA: -0.897 z-score
TGAGGTTTCGGGACTGGGTTAGTGCTA: 2.66 z-score
GACGGCCTGCTTCTCCTGACGTGCTAG: 0.591 z-score
GACGAACTGAGGCTCGAGACGTGCTAG: -0.228 z-score
TGTTATTAAAATTTAATGGGGTGCTAG: -0.485 z-score
TTTATTTTCTGAATGCCCTCGTGCTAG: 4.18 z-score
TTAGAGCTGAGTTTCGATTAGTGCTAG: 3.46 z-score
TTAGAACTGATACTGGATTAGTGCTAG: -0.474 z-score
GACGGTCTCGGTTTCCGGACGTGCTAG: 2.53 z-score
TTAGGTATCGGTATCGGTTAGTGCTAG: 1.09 z-score
TTAGGTGTCGACTTTCGGTTAGTGCTA: 5.57 z-score
TTAGGACTTGGGTTTCGGTTAGTGCTA: 3.26 z-score
GAGGCAAGGAGGGAGAACAGGTGCTAG: -1.59 z-score
TCATTTCTTTTTTTCTTACTGTGCTAG: 3.52 z-score
AAGTTTTTATTTTCTGAATGGTGCTAG: 3.2 z-score
TTAGGACTGGGTATCGGATAGTGCTAG: -0.423 z-score
ATGTGTTTACAGATGTTTTTGTGCTAG: 1.05 z-score
GACGAACTGGGGTATGGAGACGTGCTA: 0.115 z-score
TTAGATATCAGATTCGATTAGTGCTAG: 1.15 z-score
GACTGTCTCGGACTGGGGACGTGCTAG: -0.257 z-score
TTAGGACTGGACCATCGGTTAGTGCTA: -0.666 z-score
TGAGATATCAGTCTCGATTAGTGCTAG: -0.055 z-score
ATGAAGTTCTTTTTTTCAAGGTGCTAG: 0.288 z-score
GACGGTAGCGACTTTCGGGACGTGCTA: 2.48 z-score

Study 4 — technique: universal PBM; molecule type: double-stranded DNA, one strand shown; medium: in vitro; concentration: not given; direction: higher = stronger binding; endpoint: E-score
Target: Sal-like protein 4, full length isoform B (SALL4, Homo sapiens, UniProt Q9UJQ4-2, residues 1-616)
Setting: 8-mer, flanks averaged, mean of replicates
Construct (chain): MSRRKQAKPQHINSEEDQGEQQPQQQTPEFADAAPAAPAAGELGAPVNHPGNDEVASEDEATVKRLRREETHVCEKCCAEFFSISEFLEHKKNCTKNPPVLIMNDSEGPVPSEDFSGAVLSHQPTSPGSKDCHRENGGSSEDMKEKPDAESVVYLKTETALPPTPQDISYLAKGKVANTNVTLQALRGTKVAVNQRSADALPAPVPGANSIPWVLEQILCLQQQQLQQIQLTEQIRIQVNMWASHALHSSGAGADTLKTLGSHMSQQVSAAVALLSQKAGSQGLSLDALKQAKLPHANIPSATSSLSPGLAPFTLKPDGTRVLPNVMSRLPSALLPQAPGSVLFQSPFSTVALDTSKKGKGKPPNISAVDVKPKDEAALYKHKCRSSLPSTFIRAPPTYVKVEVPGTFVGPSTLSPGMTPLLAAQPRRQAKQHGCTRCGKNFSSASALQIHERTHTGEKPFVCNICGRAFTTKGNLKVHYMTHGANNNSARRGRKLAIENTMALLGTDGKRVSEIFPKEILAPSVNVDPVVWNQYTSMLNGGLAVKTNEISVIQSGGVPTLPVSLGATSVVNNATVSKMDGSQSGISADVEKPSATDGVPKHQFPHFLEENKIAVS
ATGAGCAC: -0.0786
AGCTAGGG: -0.134
CTGTATGC: 0.0949
TAAGCCGA: 0.0454
ACTATCAA: 0.0984
ACGAGCGG: -0.239
AACGGACG: -0.197
AAGACGGC: -0.135
GGGTAAAC: -0.0101
TAAACGGA: 0.149
GATTTGAA: 0.224
ACGCTTAG: -0.0086
AACTATCG: 0.0195
AAAATAGG: 0.262
CAGAACGG: -0.135
CGCTATCA: -0.0233
TAATGAGA: 0.269
CTTCCGAA: -0.027
CAGGTTTC: -0.191
GGAGCGTA: -0.133
ACGTGCGC: -0.101
AAGAGGCA: -0.0887
CTCGAGCA: -0.027
CCGTTGCG: -0.217
GGCATCCC: -0.344

Study 5 — technique: protein binding microarray; molecule type: double-stranded DNA, one strand shown; medium: in vitro; concentration: not given; reference: not given; direction: higher = stronger binding; endpoint: E-score
Target: Histone acetyltransferase KAT6A, both winged helices, GST fusion (KAT6A, Homo sapiens, UniProt Q92794, residues 1-181)
Setting: 8-mer, flanks averaged, mean of 2 arrays, mostly near background
Target sequence (chain): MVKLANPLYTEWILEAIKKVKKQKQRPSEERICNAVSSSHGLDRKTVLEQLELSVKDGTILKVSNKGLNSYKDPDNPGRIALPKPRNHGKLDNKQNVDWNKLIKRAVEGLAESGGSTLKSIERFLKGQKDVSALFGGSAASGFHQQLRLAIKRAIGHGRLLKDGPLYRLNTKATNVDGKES
AACGTCCC: -0.0565
GGCAGCAC: -0.0541
CTCCGTGA: 0.166
ACTGTCAA: -0.0315
CACTTCCA: 0.0139
GCGTGGGA: 0.0956
AAGATGGA: 0.0437
AACCCAGC: -0.0696
CACAGTGA: -0.124
CGCCTCGC: 0.197
TCACAGCA: -0.0395
AACCGCCG: 0.272
AGGATAAC: -0.208
CTGATCAA: -0.0365
AGATTGAG: -0.152
AAAATCAT: -0.0961
CACGTAGC: -0.00826

Excerpt of the above (study 2):
CGTGACGA: 0.273
AACGGGGG: 0.298
CCACGCGC: 0.422
CCCCCATC: 0.291
AGCGTGTA: 0.318
ACATTGTG: 0.285
GCCACGCC: 0.339
ATAACATG: 0.278
CTCAGCAC: 0.262
CCATGCTC: 0.368
